Published values pooled from the literature.
Lines come from different studies, so protocols differ. ± marks the error that the study gave.
AR: Androgen receptor (AR, Homo sapiens, UniProt P10275)
UniProt P10275, sequence (whole entry, unmodified, looked up): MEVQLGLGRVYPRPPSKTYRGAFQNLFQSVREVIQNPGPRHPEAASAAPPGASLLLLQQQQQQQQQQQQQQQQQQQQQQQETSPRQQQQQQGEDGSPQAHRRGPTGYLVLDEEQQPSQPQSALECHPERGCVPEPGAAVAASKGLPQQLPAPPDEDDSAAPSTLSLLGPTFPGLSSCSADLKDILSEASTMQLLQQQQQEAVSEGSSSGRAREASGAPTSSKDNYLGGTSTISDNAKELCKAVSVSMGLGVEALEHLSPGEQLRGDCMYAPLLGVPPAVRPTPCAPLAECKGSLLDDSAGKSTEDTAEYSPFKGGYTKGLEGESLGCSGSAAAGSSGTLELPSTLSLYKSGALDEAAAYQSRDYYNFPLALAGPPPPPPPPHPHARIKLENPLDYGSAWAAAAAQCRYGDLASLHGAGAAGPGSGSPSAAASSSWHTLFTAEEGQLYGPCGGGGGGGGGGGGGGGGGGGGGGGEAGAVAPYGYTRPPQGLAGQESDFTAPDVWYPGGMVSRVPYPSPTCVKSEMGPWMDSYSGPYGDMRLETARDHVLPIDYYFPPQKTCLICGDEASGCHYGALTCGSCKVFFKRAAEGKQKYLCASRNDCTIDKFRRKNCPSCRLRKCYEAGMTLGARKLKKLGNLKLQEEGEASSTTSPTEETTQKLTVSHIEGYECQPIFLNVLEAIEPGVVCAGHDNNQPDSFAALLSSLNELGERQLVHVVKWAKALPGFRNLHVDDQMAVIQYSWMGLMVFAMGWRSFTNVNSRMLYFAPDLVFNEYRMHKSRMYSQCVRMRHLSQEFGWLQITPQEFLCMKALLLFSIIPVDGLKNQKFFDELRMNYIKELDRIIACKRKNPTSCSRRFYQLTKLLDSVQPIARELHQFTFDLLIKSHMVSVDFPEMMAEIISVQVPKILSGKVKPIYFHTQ

SMILES | target or system | assay | test system | conditions | measurement | value
COC(=O)N(C(=O)N1COC2(C(=O)OC)Cc3cc(Cl)ccc3C2=N1)c1ccc(OC(F)(F)F)cc1 (racemic) | AR | reporter gene, agonist | yeast androgen screen |  | EC50 | > 100 µM
CC1(C)NC(=O)N(c2ccc(F)c(C(F)(F)F)c2)C1=O | AR | transcriptional activity, antagonist, luciferase reporter | LAPC4 | 24 h, with: 0.3 nM DHT | IC50 | 7.7 ± 4.1 µM
O=[N+]([O-])c1cc([N+](=O)[O-])c2ccccc2c1 | Androgen receptor (AR, Homo sapiens, UniProt P10275, Q868H) | antagonist |  | with: R1881 2 nM | IC50 | 17.4 µM
C[C@@H]1[C@@H](c2ccc(Cl)cc2)SC(=O)N1C(=O)NC1CCCCC1 | AR | reporter gene, agonist | yeast androgen screen |  | EC50 | > 100 µM
Oc1cc(Cl)cc(-c2cccc(Cl)c2)c1 | AR | reporter gene, antagonist |  | 24 h, with: DHT 2 nM | IC50 | 1.6 µM
C[C@]12CC[C@H]3[C@@H](CCC4=CC(=O)[C@H](O)C[C@@]43C)[C@@H]1CC[C@@H]2O | AR | cell-based |  |  | EC50 | 5.6 µM
Clc1ccc(-c2ccccc2Cl)cc1 | AR | reporter gene, antagonist |  | 24 h, with: DHT 2 nM | IC50 | 0.9 µM
COc1cc(Nc2ncc(F)c(Nc3ccc4c(n3)NC(=O)C(C)(C)O4)n2)cc(OC)c1OC | AR |  |  |  | IC50 | > 10 µM
COc1ncccc1-c1cnn2ccc(N3CCN(C(=O)OC(C)C)CC3)nc12 | AR | liability screen |  |  | IC50 | > 150 µM
C=CCc1ccccc1OCC(O)CNC1(C)CCC(C(C)(C)NC(=O)CBr)CC1 (stereo not drawn) | Plasmodium falciparum |  | 3D7 |  | IC50 | 3.16 µM
Oc1ccc(-c2ccc(Cl)cc2)c(Cl)c1 | AR | reporter gene, antagonist |  | 24 h, with: DHT 2 nM | IC50 | 0.7 µM
C[C@]12C[C@H](O)[C@H]3[C@@H](CCC4=CC(=O)CC[C@@]43C)[C@@H]1CC[C@@H]2O | AR | cell-based |  |  | EC50 | 30 µM
CNCCCN1c2ccccc2CCc2ccccc21 | Plasmodium falciparum |  | D10 |  | IC50 | 10 µM
Oc1ccc(-c2cc(Cl)ccc2Cl)c(Cl)c1 | AR | reporter gene, antagonist |  | 24 h, with: DHT 2 nM | IC50 | 3.9 µM
CCCC1COC(Cn2cncn2)(c2ccc(Cl)cc2Cl)O1 (stereo not drawn) | AR |  | human cells |  | IC50 | 8.22 µM
